# Measurements of several laboratories.
# Numbered parts are unrelated; each lists some results of a single study. Positions count from the first letter of the parent shown.

# Series 1 — technique: protein-binding microarray; form: double-stranded DNA, one strand shown; matrix: in vitro; tested at: 250 nM; notes: 60-bp whole probe; added: salmon DNA 0.4 mg/ml; relative to: random background probes; direction: higher = stronger binding; all sequences stand within: GCCTAGCAC … GTCTTGATTCGCTTGACGCTGCTG
# Target: Interferon regulatory factor 5, full length, phosphomimetic (IRF5, Homo sapiens, UniProt Q13568-2, residues 1-514, K96S/S451D/S453D/S456D/S462D)
Oligonucleotide,log fluorescence
GACCATCTCAGTCTCGAGACGTGCTAG,-0.0367 z-score
TCACATTTTTTTATCAAACTGTGCTAG,0.992 z-score
TTCGGACTGGGTTTCGGTTAGTGCTAG,8.04 z-score
TCAAATTTAGAAAATGGAACTGTGCTA,0.346 z-score
CAAGGAACTCAGAGATTTAAGTGCTAG,-0.234 z-score
GACGATAACAGTCTCGAGACGTGCTAG,0.713 z-score
GACGATTTCAGTATTGAGACGTGCTAG,1.38 z-score
TACGGTTTCGGGACTGGGGACGTGCTA,4.51 z-score
TCAGTATTTTTTCTGAAACTGTGCTAG,1.07 z-score
TTAGAAGTGAGTATCGATTAGTGCTAG,6.9 z-score
TTCTTAATGCTTCTGGACCAGTGCTAG,-0.0431 z-score
TCACTTCTCCCTTTCAGACTGTGCTAG,0.911 z-score
CATTATATTTTAATCACATAGTGCTAG,0.725 z-score
GACGATTTCAGTTTCGTGACGTGCTAG,4.29 z-score
GACGGTTTCCTTTCCCTGAGGTGCTAG,1.01 z-score
GAAGGACTGGGTATCGGGACGTGCTAG,0.653 z-score
GACGATATCAGACTGGAAACGTGCTAG,0.692 z-score
TTAGGACTGCTTCTCCTGTAGTGCTAG,-0.374 z-score
TTATATCTGTGTTATTAAATTGTGCTA,2.04 z-score

# Series 2 — target: UBE2O UBC core domain (UniProt Q9C0C9); technique: yeast two-hybrid; matrix: yeast; notes: mostly zero background; relative to: not given; direction: higher = stronger interaction
# B1: TRIM22 RING domain (UniProt Q8IYM9); chain VKVDIEKEVTCPICLELLTEPLSLDCGHSFCQACITAKIKESVIISRGESSCPVCQTRFQPGNLRP
# Residues (chain): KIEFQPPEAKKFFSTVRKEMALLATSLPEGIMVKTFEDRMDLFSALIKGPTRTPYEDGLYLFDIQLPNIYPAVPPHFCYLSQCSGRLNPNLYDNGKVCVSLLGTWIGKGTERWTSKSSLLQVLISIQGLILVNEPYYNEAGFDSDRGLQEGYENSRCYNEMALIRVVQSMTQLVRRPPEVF
Molecule,lacZ reporter activity
FVKTVEDKYKCEKCHLVLCSPKQTECGHRFCESCMAALLSSSSPKCTACQESIVKDKVF (TRAF3 RING domain (UniProt Q13114)),0
LDAASGHPLVCPLCHGQYERPCLLDCFHDFCTGCLRGRATDGRLSCPLCQHQTLVKGPSG (Rnf207 RING domain (UniProt Q3V3A7)),0
QVQSRTKIEECVVCSDKKAAVLFQPCGHMCACENCANLMKKCVQCRAVVERRVPFI (MIB1 RING domain (UniProt Q86YT6)),0
LGTKLEAKYLCSACRNVLRRPFQAQCGHRYCSFCLASILSSGPQNCAACVHEGIYEEGIS (TRAF2 RING domain (UniProt Q12933)),0
YPEEVDDDLICHICLQALLDPLDTPCGHTYCTLCLTNFLVEKDFCPMDRKPLVLQHCKK (LNX1 RING domain (UniProt Q8TBB1)),0
MNDVLENELQCIICSEYFIEAVTLNCAHSFCSYCINEWMKRKIECPICRKDIKSKTYSL (RNF8 RING domain (UniProt O76064)),0
B1 (TRIM22 RING domain),0

# Series 3 — technique: competition protein-binding microarray; form: double-stranded DNA, one strand shown; matrix: in vitro; tested at: 2 µM; added: Pho4 competitor, 0.05 µM; direction: higher = stronger binding
# Target: Centromere-binding protein 1, full length, His-tagged (CBF1, Saccharomyces cerevisiae, UniProt P17106, residues 1-351)
# Sequence of UniProt P17106 (whole entry, looked up): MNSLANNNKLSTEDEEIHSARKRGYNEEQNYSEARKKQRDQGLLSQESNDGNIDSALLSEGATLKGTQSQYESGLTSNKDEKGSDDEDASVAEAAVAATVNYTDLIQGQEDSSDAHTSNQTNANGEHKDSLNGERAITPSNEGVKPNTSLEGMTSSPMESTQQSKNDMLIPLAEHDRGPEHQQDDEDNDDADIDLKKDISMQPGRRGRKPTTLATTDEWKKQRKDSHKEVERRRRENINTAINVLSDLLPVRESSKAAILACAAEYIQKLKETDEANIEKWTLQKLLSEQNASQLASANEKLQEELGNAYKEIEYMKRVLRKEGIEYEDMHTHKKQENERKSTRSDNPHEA
# Notes: whole 60-bp probe, lowest competitor level
Oligonucleotide,fluorescence intensity
TGCCCGCCATCGAGTCACATGTTCCTACAGATGAAGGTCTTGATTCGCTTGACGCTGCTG,1460 a.u.
TTTCAATTCTATCTTACTTTTCATTGCCATTTTACTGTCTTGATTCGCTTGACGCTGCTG,85.2 a.u.
CTTTCCCGATCTTGGGGCGTGGGTGTAGCACATTTGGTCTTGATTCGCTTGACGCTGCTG,65.8 a.u.
GCCACAACTGCGGCCCGCGTGAAGAAAAAACCCCATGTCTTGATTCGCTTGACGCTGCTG,83.6 a.u.
CGTTATATTTCCGACGTCGTGCGATAGTTTCTGCGCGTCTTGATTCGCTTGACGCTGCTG,85.4 a.u.
AAAGCGGTAATTTGGGTCGTGGGTGCAGATATCTATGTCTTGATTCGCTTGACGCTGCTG,93 a.u.
TATAGGGCTCTGAGTCTCGTGGTCGAGGAATCCGGCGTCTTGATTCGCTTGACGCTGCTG,148 a.u.
GTCTTGTCTCATTGTCTAGTGGGTGTCCCCACTTCAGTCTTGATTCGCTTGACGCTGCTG,76.9 a.u.
TGCGCAACAACTTGCTCGGTGGGTGTATGTCTAGAAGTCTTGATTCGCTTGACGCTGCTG,71.3 a.u.
ACTCTTTCGCTAGTCCATGTGATTCTTTGAGAGTTTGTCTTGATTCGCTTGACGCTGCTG,403 a.u.
CTAACGAAGGTTTGCTTAGTGGGTGACAAGCCAAGTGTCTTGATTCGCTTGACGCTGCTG,73.9 a.u.
CTTCTGTAAATTTGGTCTGTGGGTGGACGCGCCCCGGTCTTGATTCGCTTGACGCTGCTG,87.6 a.u.
ACAATTTCTACTCCACACGTGGAATACGAAACGGCCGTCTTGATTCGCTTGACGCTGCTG,373 a.u.
CCGATCTAGCGTAGTCACCTGATAACAGGAACATAGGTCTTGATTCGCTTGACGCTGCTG,1260 a.u.

# Series 4 — technique: DHFR PCA, deep sequencing; matrix: yeast; added: (+)-ABA 0 µM; relative to: wild-type fitted maximum; direction: higher = stronger binding
# Target: ABI1, truncated, D143A, DHFR fusion (Arabidopsis thaliana)
# Notes: methotrexate growth selection, single substitutions
# Starting sequence: PYL1, truncated, DHFR fusion (Arabidopsis thaliana); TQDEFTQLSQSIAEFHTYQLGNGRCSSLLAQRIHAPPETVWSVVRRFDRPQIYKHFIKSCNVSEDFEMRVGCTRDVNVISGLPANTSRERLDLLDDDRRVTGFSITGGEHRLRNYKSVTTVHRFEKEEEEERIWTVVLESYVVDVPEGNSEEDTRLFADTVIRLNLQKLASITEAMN
Substitution,relative binding score
L8S,-2.85%
I162A,7.01%
Y115K,-3.36%
E139V,7.73%
T39W,-1.5%
S104E,-6.47%
R49L,-4.07%
D48T,5.85%
D96R,-6.69%
T101M,64.7%
Q167T,9.49%
G108K,0.491%
V40R,0.673%
E127S,31.6%
T173R,-3.72%
